Results collected from several papers.
Each numbered part is a random draw from the data of one study; scales do not carry over between parts.

Sample 1 — method: protein-binding microarray; form: double-stranded DNA, one strand shown; matrix: in vitro; concentration: 2200 nM top; setting: 60-bp whole probe; added: salmon DNA 0.4 mg/ml; reference: random background probes; reading: higher = stronger binding; quantity: fitted relative affinity
Target: Interferon regulatory factor 7, full length, phosphomimetic (IRF7, Homo sapiens, UniProt Q92985, residues 1-503, S471D/S472D/S475D/S476D/S477D/S483D/S484D/S487D)
Sequence of UniProt Q92985 (whole entry, unmodified, looked up): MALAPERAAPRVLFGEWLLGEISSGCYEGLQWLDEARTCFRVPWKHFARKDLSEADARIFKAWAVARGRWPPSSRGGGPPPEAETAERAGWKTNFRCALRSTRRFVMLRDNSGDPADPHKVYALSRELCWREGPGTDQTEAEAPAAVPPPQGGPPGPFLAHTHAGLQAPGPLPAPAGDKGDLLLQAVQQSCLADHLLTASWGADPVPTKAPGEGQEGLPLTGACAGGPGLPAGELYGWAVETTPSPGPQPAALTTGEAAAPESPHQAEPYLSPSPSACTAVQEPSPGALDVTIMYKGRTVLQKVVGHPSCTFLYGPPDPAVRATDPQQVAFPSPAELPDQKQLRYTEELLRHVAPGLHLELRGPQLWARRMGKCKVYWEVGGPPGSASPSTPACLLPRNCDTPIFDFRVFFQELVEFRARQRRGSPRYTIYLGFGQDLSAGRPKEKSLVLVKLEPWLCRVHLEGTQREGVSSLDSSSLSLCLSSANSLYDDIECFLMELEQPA
GCCTAGCACGACGTTTTCGGTTCCGGGACGTGCTAGGTCTTGATTCGCTTGACGCTGCTG: 10.4 z-score
GCCTAGCACGACGGTCTCGGTAGCGGGACGTGCTAGGTCTTGATTCGCTTGACGCTGCTG: -0.583 z-score
GCCTAGCACTCAGATTTCGGGACTGGATTAGTGCTAGTCTTGATTCGCTTGACGCTGCTG: 1.42 z-score
GCCTAGCACTTAGATTTCGGGTCTCGATTAGTGCTAGTCTTGATTCGCTTGACGCTGCTG: 3.82 z-score

Sample 2 — method: aptamer microarray, sandwich; form: DNA with 2'F-ANA; matrix: in vitro; concentration: 200 nM; added: Cy3 exosite-II aptamer, 400 nM; reading: higher = stronger binding; quantity: mean fluorescence intensity; oligonucleotide: GGTTGGTGTGGTTGG
Target: Prothrombin, mature alpha-thrombin (F2, Homo sapiens, UniProt P00734)
Setting: whole 15-mer aptamer, many near background
2'F-ANA at 1 2 3 4 6 8 12 13: 274 a.u.
2'F-ANA at 3 4 5 6 8 11 14: 52.1 a.u.
2'F-ANA at 1 2 3 4 6 11 12 15: 221 a.u.
2'F-ANA at 2 5 6 7 11 13: 53.9 a.u.
2'F-ANA at 2 3 4 8 13 14: 305 a.u.
2'F-ANA at 1 4 5 9 11 14: 42.5 a.u.

Sample 3 — method: universal PBM; form: double-stranded DNA, one strand shown; matrix: in vitro; concentration: 600 nM; reading: higher = stronger binding; quantity: E-score
Target: Sal-like protein 4, full length isoform A (SALL4, Homo sapiens, UniProt Q9UJQ4, residues 1-1053)
Sequence of UniProt Q9UJQ4 (whole entry, looked up): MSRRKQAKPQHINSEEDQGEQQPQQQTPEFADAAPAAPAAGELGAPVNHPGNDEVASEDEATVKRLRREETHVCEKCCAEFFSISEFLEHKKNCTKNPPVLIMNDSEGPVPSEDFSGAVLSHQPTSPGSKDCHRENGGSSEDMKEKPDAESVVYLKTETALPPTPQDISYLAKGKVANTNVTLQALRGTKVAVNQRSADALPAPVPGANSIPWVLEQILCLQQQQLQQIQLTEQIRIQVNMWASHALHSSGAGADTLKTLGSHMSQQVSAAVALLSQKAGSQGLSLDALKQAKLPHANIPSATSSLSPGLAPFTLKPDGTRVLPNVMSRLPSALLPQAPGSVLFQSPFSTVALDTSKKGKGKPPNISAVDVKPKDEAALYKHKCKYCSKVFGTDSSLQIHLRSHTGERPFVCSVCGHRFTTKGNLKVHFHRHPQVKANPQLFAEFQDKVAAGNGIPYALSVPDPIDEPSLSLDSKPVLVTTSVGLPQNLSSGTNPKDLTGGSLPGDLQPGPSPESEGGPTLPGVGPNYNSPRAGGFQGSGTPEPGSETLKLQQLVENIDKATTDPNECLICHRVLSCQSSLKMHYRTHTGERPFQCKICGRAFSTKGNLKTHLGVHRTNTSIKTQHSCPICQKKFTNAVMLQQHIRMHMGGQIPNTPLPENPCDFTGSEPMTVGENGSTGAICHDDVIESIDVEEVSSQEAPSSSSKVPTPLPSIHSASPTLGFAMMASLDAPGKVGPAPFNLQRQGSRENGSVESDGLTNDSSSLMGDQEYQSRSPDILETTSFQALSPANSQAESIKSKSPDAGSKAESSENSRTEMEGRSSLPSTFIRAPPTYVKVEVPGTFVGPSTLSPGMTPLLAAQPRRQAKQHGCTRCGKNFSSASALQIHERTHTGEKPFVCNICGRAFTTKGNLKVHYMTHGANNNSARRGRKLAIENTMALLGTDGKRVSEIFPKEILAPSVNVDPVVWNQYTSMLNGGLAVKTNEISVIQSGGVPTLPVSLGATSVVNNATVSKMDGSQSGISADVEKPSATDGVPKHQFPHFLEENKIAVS
Setting: 8-mer, flanks averaged, mean of replicates
CTACGGTA: -0.103
ACGTGGTG: -0.229
CAATCTGA: 0.0503
CACGGTAA: 0.0172
AAGTCATC: 0.115
AGGCCAAA: -0.0976

Mixed results
PhoQ, residues 284 288 289 292 302 303 SLSLLA  fold induction (PhoP, residues 12 14 15 18 19 LWHCS (Escherichia coli, UniProt P23836); Sort-seq, refers to: YFP reporter; E. coli; PhoQ-PhoP variant library, added: 10 µM Mg2+; reference: high Mg2+ state, higher = stronger signaling): 2.89

A few entries again (sample 3):
AAGTCATC: 0.115
AGGCCAAA: -0.0976
